# Assay results gathered from unrelated publications.
# Lines come from different studies, so protocols differ. Numbers after ± are the reported error.
# Cell line: HCT-116
Compound,observed,technique,matrix,time,setting,IC50
CC(C)c1cccc(C(C)C)c1[N+]#[C][Pd-2]([Cl])([Cl])[C]#[N+]c1c(C(C)C)cccc1C(C)C,cell growth or viability,,,,,> 100 µM
COC(=O)CNC(=O)CCn1nc(Cc2ccccc2)c2ccccc2c1=O,cell growth or viability,MTT,,48 h,,40.8 µM
CN1CCN(c2ccc(Nc3ncc(F)c(-c4cn(C5CCCCC5)nn4)n3)cc2)CC1,cell growth or viability,SRB,,72 h,,7.89 µM
O=C1C=C(c2coc3cc(O)cc(O)c3c2=O)C(=O)C([N+](=O)[O-])=C1O,cell growth or viability,MTT,,72 h,,57.2 µM
C#CCN(CC(=O)O[C@H]1[C@H](C)O[C@@H](O[C@H]2[C@H](N(C)C)[C@@H](O)[C@H](O[C@H]3[C@@H](CC=O)C[C@@H](C)[C@@H](O[C@H]4CC[C@H](N(C)C)[C@@H](C)O4)/C=C/C=C/C[C@@H](C)OC(=O)C[C@@H](O)[C@@H]3OC)O[C@@H]2C)C[C@@]1(C)O)Cc1ccc(C(F)(F)F)cc1,cell growth or viability,CCK-8,,72 h,,4.39 µM
O=C(CN1C(=O)S/C(=C\c2ccccc2)C1=O)Nc1ccc(C(=O)Nc2ccc(F)cc2)cc1,cell growth or viability,MTT,,,,18.8 µM
Oc1ccc2c(c1)OCc1c-2oc2cc3c(cc12)OCO3,cell growth or viability,MTT,,72 h,,21.9 µM
CSC(=NN=C(C)c1ccc(S(=O)(=O)N2CCC(C)CC2)cc1)N(C)C,cell growth or viability,MTT,,,,3.53 µM
CCCCNC(=O)O[C@H]1[C@H](C)O[C@@H](O[C@H]2[C@H](N(C)C)[C@@H](O)[C@H](O[C@H]3[C@@H](CC=O)C[C@@H](C)[C@@H](O[C@H]4CC[C@H](N(C)C)[C@@H](C)O4)/C=C/C=C/C[C@@H](C)OC(=O)C[C@@H](O)[C@@H]3OC)O[C@@H]2C)C[C@@]1(C)O,cell growth or viability,CCK-8,,72 h,,> 50 µM
O=C(CCc1nc2cc(Cl)ccc2[nH]c1=O)Nc1ccc(F)cc1,cell growth or viability,MTT,,,,93.1 µM
COc1cccc2c1C(=O)c1c(O)c3c(c(O)c1C2=O)CC(O)(C(=O)CO)CC3OC1CC(NC(=O)C[C@H](N)C(=O)O)C(O)C(C)O1 (stereo partly shown),cell growth or viability,MTT,,48 h,,< 10 µg/mL
CCCCCCCCCCCCCCCC(=O)O[C@H]1[C@H](C)O[C@@H](O[C@H]2[C@H](N(C)C)[C@@H](O)[C@H](O[C@H]3[C@@H](CC=O)C[C@@H](C)[C@@H](O[C@H]4CC[C@H](N(C)C)[C@@H](C)O4)/C=C/C=C/C[C@@H](C)OC(=O)C[C@@H](O)[C@@H]3OC)O[C@@H]2C)C[C@@]1(C)O,cell growth or viability,CCK-8,,72 h,,14.6 µM
O=c1[nH]c2ccccc2nc1/C=C/c1ccc2ccccc2n1,cell growth or viability,MTT,,72 h,,> 50 µM
CC(C)c1cccc(C(C)C)c1[N+]#[C][Pd-]([Cl])([Cl])=[C](Nc1cccc(CN[C](Nc2c(C(C)C)cccc2C(C)C)=[Au][Cl])c1)Nc1c(C(C)C)cccc1C(C)C,cell growth or viability,,,,,40 µM
CC12CCCC(NS(=O)(=O)C3CCN(Cc4ccccc4)C3)(C1)C1CC(C)(C)C1CC2 (stereo not shown),cell growth or viability,CCK-8,,72 h,,40.6 µM
CSc1nc(Nc2cccc(/C(C)=N/NC(=O)c3ccc([N+](=O)[O-])cc3)c2)c(C#N)c(-c2ccccc2)n1,cell growth or viability,MTT,,48 h,,7.15 µM
O=C(NCCOc1cnc(-c2ccc(N3CCN(C(=O)CN4CCC(C(=O)Nc5ccc6[nH]nc(-c7ccncc7)c6c5)C4)CC3)cc2)nc1)OC1CCC=CCCC1 (stereo not shown),cell growth or viability,resazurin,,96 h,,0.1 µM
Cc1cc(C)c(N=[C](NCc2cccc(N)c2)[AuH][Cl])c(C)c1,cell growth or viability,,,,,> 100 µM
Cc1cc(N2CCN(C(=O)CN3CCCCC3)CC2)n2ncnc2n1,cell growth or viability,MTT,,,,73.9 µM
COc1ccc(-c2c(C#N)c(N)n(-c3nnc(NC(=O)c4ccccc4)s3)c(=O)c2C#N)cc1,cell growth or viability,MTT,,48 h,,29.2 µM
CC(C)c1cccc(C(C)C)c1[N+]#[C][Pd-]([Cl])([Cl])=[C](Nc1ccc(CN[C](NC(C)(C)C)=[Au][Cl])cc1)Nc1c(C(C)C)cccc1C(C)C,cell growth or viability,,,,,33 µM
CSc1nc(Nc2cccc(/C(C)=N/NC(=O)c3cccc(Cl)c3)c2)c(C#N)c(-c2ccccc2)n1,cell growth or viability,MTT,,48 h,,9.25 µM
[Cl][Au]1[P](c2ccccc2)(c2ccccc2)C[P](c2ccccc2)(c2ccccc2)[Au]([Cl])[P](c2ccccc2)(c2ccccc2)C[P]1(c1ccccc1)c1ccccc1,cell growth or viability,trypan blue,,48 h,,1.3 µM
COCCOCCSc1nc(N)c2c(F)c(C#N)c(F)c(F)c2n1,cell growth or viability,MTT,,96 h,,5.55 µM
Cc1cc(C)c([N+]#[C][Pt-]([Cl])([Cl])=[C](Nc2cccc(CN[C](Nc3c(C(C)C)cccc3C(C)C)=[Au][Cl])c2)Nc2c(C)cc(C)cc2C)c(C)c1,cell growth or viability,,,,,> 100 µM
CCCCc1ccc(C(=O)O[C@@H]2CC(=O)O[C@H](C)C/C=C/C=C/[C@H](O[C@H]3CC[C@H](N(C)C)[C@@H](C)O3)[C@H](C)C[C@H](CC=O)[C@H](O[C@@H]3O[C@H](C)[C@@H](O[C@H]4C[C@@](C)(O)[C@@H](O)[C@H](C)O4)[C@H](N(C)C)[C@H]3O)[C@H]2OC)cc1,cell growth or viability,CCK-8,,72 h,,12.4 µM
CCC1=C(CC)C2=[N+]3C1=Cc1c(CC)c(CC)c4[n]1[Ir-3]31([n+]3ccccc3)([n+]3ccccc3)[n]3c(c(CC)c(CC)c3=CC3=[N+]1C(=C4)C(CC)=C3CC)=C2.Cl,cell growth or viability,MTT,,72 h,,0.25 µM
O=C(NNc1nc(-c2ccccc2)cs1)c1cc2ccc(O)cc2oc1=O,cell growth or viability,SRB,,72 h,,3.5 µM
Cc1c(C)c(C)[c-](C)c1C.O=Cc1ccc(-c2[c-]cccc2)nc1.[Cl-].[Ir+3],,SRB,,24 h,72 h recovery,18.8 ± 0.5 µM
Cc1cc(=O)oc2cc(OCC(=O)NCC(=O)NCC(=O)NN)ccc12,cell growth or viability,MTT,,,,94.7 µM
O=C(NCCCCCCCNc1n[n+]([O-])c2ccccc2[n+]1[O-])C(F)(F)F,cytotoxicity,MTT,,24 h,normoxia,106 ± 2 µM
CCCCCCCCSc1nc(N)c2c(F)c(C#N)c(F)c(Cl)c2n1,cell growth or viability,MTT,,96 h,,> 100 µM
O=C(NCCCCCCCCNc1n[n+]([O-])c2ccccc2[n+]1[O-])C(F)(F)F,cytotoxicity,MTT,,24 h,hypoxia,50.5 µM
O=C(CCCCCCOc1ccc(Nc2ncc(F)c(-c3cn(C4CCCCC4)nn3)n2)cc1)NO,cell growth or viability,SRB,,72 h,,2.19 µM
CC(C)c1ccc2c(c1)CCC1[C@](C)(C(=O)OCCSc3nccc(O)n3)CCC[C@]21C (stereo partly shown),cell growth or viability,MTT,,48 h,,9.53 to 19.4 µM
NC1=N[N+](=Cc2c3ccccc3cc3ccccc23)[Ga-3]23([S]1)([S]C(N)=N[N+]2=Cc1c2ccccc2cc2ccccc12)[S]C(N)=N[N+]3=Cc1c2ccccc2cc2ccccc12,,,,24 h,,25.4 ± 0.9 µM
CC(C)c1cccc(C(C)C)c1N=[C](NCc1cccc(N)c1)[AuH][Cl],cell growth or viability,,,,,4.4 µM
CCOC(=O)c1ccc(-n2cc(Cn3c(=O)c(Cc4ccccc4)nc4ccccc43)nn2)cc1,cell growth or viability,MTT,,72 h,,0.123 µM
O=C(NCCCCCCNc1n[n+]([O-])c2ccccc2[n+]1[O-])C(F)(F)F,cytotoxicity,MTT,10% FBS medium,6 h + 18 h,hypoxia 3% O2,63.9 ± 3.8 µM
O=C(CCc1nc2cc(Cl)ccc2[nH]c1=O)Nc1ccc([N+](=O)[O-])cc1,cell growth or viability,MTT,,,,19.4 µM
CC(C)c1ccc2c(c1)CCC1[C@](C)(C(=O)OCCSc3nc(O)c(C#N)c(-c4ccccc4O)n3)CCC[C@]21C (stereo partly shown),cell growth or viability,MTT,,48 h,,9.53 to 19.4 µM
Cc1ncc(COP(=O)(O)O)c(/C=N\NC(=O)Cn2c(=O)c(Cc3ccccc3)nc3ccccc32)c1O,cell growth or viability,MTT,,72 h,,0.123 µM
COCCSc1nc(N)c2c(F)c(C#N)c(F)c(Cl)c2n1,cell growth or viability,MTT,,96 h,,6.94 µM
O=C(NCCCNc1n[n+]([O-])c2ccccc2[n+]1[O-])C(F)(F)F,cytotoxicity,MTT,10% FBS medium,6 h + 18 h,hypoxia 3% O2,38.6 ± 8.1 µM
Cc1ccc(C(=O)C2Sc3nnc(-n4nc(C)cc4C)n3NC2c2ccc(Cl)cc2)cc1 (racemic),cell growth or viability,imaging,,72 h,,> 100 µM
Cc1ccc(CN2C(=O)/C(=N\c3ccc(Cl)cc3Br)c3ccccc32)cc1,cell growth or viability,MTT,,48 h,,0.64 µM
CCNC(=S)N/N=C(\C)c1c(O)c2ccccc2oc1=O,cell growth or viability,MTT,,48 h,,17.8 µM
CSc1nc(Nc2cccc(/C(C)=N/NC(=O)c3ccc(N)cc3)c2)c(C#N)c(-c2ccccc2)n1,cell growth or viability,MTT,,48 h,,16.4 µM
CN1CCC2(CC1)C/C(=N\NC(=O)Nc1ccccc1)c1ccccc1O2,,,,48 h,,5.6 µM
CC(=NNC(N)=S)c1ccc2ccccc2c1.CC(=NNC(N)=S)c1ccc2ccccc2c1.[Cl][Cu][Cl],cytotoxicity,MTS,,72 h,,~1 µM
CNCCNC(=O)c1cn(C23CCCC(C)(CCC4C2CC4(C)C)C3)nn1 (stereo not shown),cell growth or viability,CCK-8,,72 h,,14.5 µM
CC(=O)N[C@H]1C(n2cc([C@@](C)(O)c3cccc(F)c3)nn2)O[C@H](COCc2ccccc2)[C@H](OCc2ccccc2)[C@@H]1OCc1ccccc1 (stereo partly shown),cell growth or viability,MTS,,72 h,,> 100 µM
Cc1ccc(NC(=O)N/N=C2\CC3(CCN(C)CC3)Oc3ccccc32)cc1,,,,48 h,,7.75 ± 0.33 µM
COCCOCCSc1nc(N)c2c(F)c(C#N)c(F)c(Cl)c2n1,cell growth or viability,MTT,,96 h,,5.68 µM
COC(=O)[C@H](CC(C)C)NC(=O)CCn1nc(Cc2ccccc2)c2ccccc2c1=O,cell growth or viability,MTT,,48 h,,≥ 50 µM

# A few entries again:
Compound,observed,technique,matrix,time,setting,IC50
O=C(CN1C(=O)S/C(=C\c2ccccc2)C1=O)Nc1ccc(C(=O)Nc2ccc(F)cc2)cc1,cell growth or viability,MTT,,,,18.8 µM
Oc1ccc2c(c1)OCc1c-2oc2cc3c(cc12)OCO3,cell growth or viability,MTT,,72 h,,21.9 µM
CSC(=NN=C(C)c1ccc(S(=O)(=O)N2CCC(C)CC2)cc1)N(C)C,cell growth or viability,MTT,,,,3.53 µM
CCCCNC(=O)O[C@H]1[C@H](C)O[C@@H](O[C@H]2[C@H](N(C)C)[C@@H](O)[C@H](O[C@H]3[C@@H](CC=O)C[C@@H](C)[C@@H](O[C@H]4CC[C@H](N(C)C)[C@@H](C)O4)/C=C/C=C/C[C@@H](C)OC(=O)C[C@@H](O)[C@@H]3OC)O[C@@H]2C)C[C@@]1(C)O,cell growth or viability,CCK-8,,72 h,,> 50 µM
